Measurements pooled from the literature.
Lines come from different studies, so protocols differ. Several values in a cell are separate wells, animals, samples, runs or records. Numbers after ± are the reported error.

For `CCN1CCC(CCNCc2cc3ccccc3nc2SCc2ccccc2)CC1`, the inhibition was 11% (electron transport chain; proton pumping, ACMA quenching; Pseudomonas aeruginosa inverted membrane vesicles; 2 µg/mL, with: NADH).
For `O=C(CCCc1cn(C[C@H]2O[C@@H]3O[C@H]4[C@H](O)[C@@H](O)[C@@H](O[C@H]5[C@H](O)[C@@H](O)[C@@H](O[C@H]6[C@H](O)[C@@H](O)[C@@H](O[C@H]7[C@H](O)[C@@H](O)[C@@H](O[C@H]8[C@H](O)[C@@H](O)[C@@H](O[C@H]9[C@H](O)[C@@H](O)[C@@H](O[C@H]2[C@H](O)[C@H]3O)O[C@@H]9Cn2cc(CCCC(=O)N[C@H]3CCOC3=O)nn2)O[C@@H]8Cn2cc(CCCC(=O)N[C@H]3CCOC3=O)nn2)O[C@@H]7Cn2cc(CCCC(=O)N[C@H]3CCOC3=O)nn2)O[C@@H]6Cn2cc(CCCC(=O)N[C@H]3CCOC3=O)nn2)O[C@@H]5Cn2cc(CCCC(=O)N[C@H]3CCOC3=O)nn2)O[C@@H]4Cn2cc(CCCC(=O)N[C@H]3CCOC3=O)nn2)nn1)N[C@H]1CCOC1=O`, the EC50 was 64 µM (LuxR; bioluminescence induction, agonist; Escherichia coli, DH5α sensor strain).
For `C=CC(=O)Nc1cccc(Cn2ncc3cnc(Nc4cnn(CCOC)c4)nc32)c1`, “percent of control” read 83% (FGFR4 human; binding, KINOMEscan; 100 nM; lower = stronger binding).
The ΔTm of `O=C(N/N=C/c1cc[n+](Cc2ccccc2)c2ccccc12)c1cccc(C(=O)N/N=C/c2cc[n+](Cc3ccccc3)c3ccccc23)n1` is reported as 16.4 ± 0.4 °C (22CTA telomeric G4-DNA antiparallel; FRET melting; 1 µM, K10 buffer, DNA 0.2 µM, with: ds26 10 µM).
The di-ubiquitin formed of `O=c1c(-c2cnn(-c3ccc(Cl)cc3)c2)c(C(F)(F)F)oc2c(O)c(O)ccc12` is reported as 65% (ROC1-CUL1 E3 subcomplex; di-ubiquitin synthesis; 37.5 µM; relative to: input).
With `O=C(Nc1ccc([C@H]2[C@@H](F)[C@@H](F)C[C@@H](F)[C@H]2F)cc1)C1(N2CCOCC2)CC1` the hepatic clearance was 48 mL/min/kg (liver microsome stability; rat liver microsomes; 1 µM).
`C[n+]1cccc2cc(/C=N/NC(=O)c3cccc(C(=O)N/N=C/c4ccc5c(ccc[n+]5C)c4)n3)ccc21` has a ΔTm of 12.8 ± 0.6 °C (22CTA telomeric G4-DNA antiparallel; FRET melting; 1 µM, K10 buffer, DNA 0.2 µM, with: ds26 10 µM).
`C=CC(=O)N1[C@@H](c2ccc3c(c2)OCO3)c2[nH]c3ccccc3c2C[C@H]1C(=O)N1CCN(C)CC1` has a relative co-enrichment of 98% (human cyclin E1 wild type-3xFLAG:CDK2; co-IP with TMT proteomics, measured: ATAD3A; concentration not given, Q9NVI7; relative to: wild type DMSO).
`CC[n+]1cccc2cc(/C=N/NC(=O)C(=O)N/N=C/c3ccc4c(ccc[n+]4CC)c3)ccc21` has a ΔTm of 2.9 ± 0.5 °C (22CTA telomeric G4-DNA antiparallel; FRET melting; 1 µM, K10 buffer, DNA 0.2 µM, with: ds26 10 µM).
`Nc1ncc(-c2cc(-c3cnn(CC(F)(F)F)c3)ncc2F)nc1C(=O)NC1CNCC(F)C1` (centres unmarked) has a remaining binding of 35% (BRSK2; KINOMEscan; 1 µM; relative to: DMSO control).
The Cdc34b-ubiquitin remaining of `O=c1c(Oc2ccccc2)c(C(F)(F)F)oc2c(O)c(O)ccc12` is reported as 2% (ROC1-CUL1 E3 subcomplex; Cdc34-ubiquitin discharge; 10 µM; relative to: input).
`O=C(NCCOc1ccc(F)cc1)c1ccc(C2CCCCC2)cc1` gave a hepatic clearance of 28 mL/min/kg (liver microsome stability; dog liver microsomes; 1 µM).
For `C/C1=C\CC/C(C)=C/CC(C)(C)/C=C/C1`, the inhibition was 10 ± 5% (sodium channels; sodium current, inhibitor, whole-cell patch clamp; mouse DRG neurons; 100 µM, 5 min).
`CC(=O)c1cnc(N)nc1N1CC[C@H]1c1nn2ccc(Cl)c2c(=O)n1-c1ccccc1` has a binding of 78.3% (PI3Kβ; KiNativ; dog white blood cell lysate; 1 µM).
`O=C(CCCCCCc1ccccc1)c1ncc(-c2ccc(CBr)cn2)o1` gave an inhibition of greater than 90% (fatty-acid amide hydrolase (mouse); measured: anandamide levels; mouse, brain; i.p., dose not given).
The inhibition of `Cc1[nH]nc2c1N=C(c1ccccc1Cl)c1cnc(N3CCOCC3)cc1N2` is reported as 1% (P2Y receptor, rat; radioligand binding; 10 µM).
With `C[n+]1cc(/C=N/NC(=O)c2cccc(C(=O)N/N=C/c3cc4ccccc4[n+](C)c3)n2)cc2ccccc21` the ΔTm was 12.1 ± 0.5 °C (22CTA telomeric G4-DNA antiparallel; FRET melting; 1 µM, K10 buffer, DNA 0.2 µM).
`C=CC(=O)N1[C@@H](c2ccc3c(c2)OCO3)c2[nH]c3ccccc3c2C[C@H]1C(=O)NC1CC1` has an inhibition of 87% (PTGES2 Cys113 human; cysteine IA-DTB labelling, covalent inhibitor, MS-ABPP; 22Rv1; 20 µM, 3 h).
`O=C(N/N=C/c1ccc(C[n+]2ccccc2)cc1)N/N=C/c1ccc(C[n+]2ccccc2)cc1` has a ΔTm of 3.6 ± 0.1 °C (22CTA telomeric G4-DNA antiparallel; FRET melting; 1 µM, K10 buffer, DNA 0.2 µM, with: ds26 10 µM).
With `Cn1ccc2cc(-n3c(=O)[nH]c4sc5c(c4c3=O)CCCC5)ccc21` the inhibition was -10% (NMDA receptor rat; binding, radioligand binding; 10 µM, glutamate agonist site).
With `C[n+]1cc(/C=N/NC(=O)C(=O)N/N=C/c2cc3ccccc3[n+](C)c2)cc2ccccc21` the ΔTm was 3.5 ± 1.8 °C (22CTA telomeric G4-DNA antiparallel; FRET melting; 1 µM, K10 buffer, DNA 0.2 µM).
With `OC[C@H]1O[C@@H]2O[C@H]3[C@H](O)[C@@H](O)[C@@H](O[C@H]4[C@H](O)[C@@H](O)[C@@H](O[C@H]5[C@H](O)[C@@H](O)[C@@H](O[C@H]6[C@H](O)[C@@H](O)[C@@H](O[C@H]7[C@H](O)[C@@H](O)[C@@H](O[C@H]1[C@H](O)[C@H]2O)O[C@@H]7CO)O[C@@H]6CO)O[C@@H]5CO)O[C@@H]4CO)O[C@@H]3CO` the bioluminescence induction was 714 ± 60 RLU (LuxR; Escherichia coli sensor; 1 µM; higher = stronger induction).
`C[n+]1ccc(/C=N/NC(=O)c2cccc(C(=O)N/N=C/c3cc[n+](C)cc3)c2)cc1` has a ΔTm of 1.9 ± 0.3 °C (22CTA telomeric G4-DNA antiparallel; FRET melting; 1 µM, K10 buffer, DNA 0.2 µM).
With `CC(C)Oc1cc(Cl)ccc1CNc1cc(-c2ccccc2)nc2ncnn12` the cAMP luminescence was 28900 a.u. and 24700 a.u. and 22300 a.u. (endogenous β-adrenergic receptors; cAMP level, cAMP GloSensor; mock-transfected cells; 1 nM, with: isoprenaline 30 nM; higher = more cAMP).
The ΔTm of `C[n+]1cc(/C=N/NC(=O)c2ccc3ccc(C(=O)N/N=C/c4cc5ccccc5[n+](C)c4)nc3n2)cc2ccccc21` is reported as 12.5 ± 0.3 °C (22CTA telomeric G4-DNA antiparallel; FRET melting; 1 µM, K10 buffer, DNA 0.2 µM).
For `c1ccc(-c2n[nH]cc2-c2ccnc3ccccc23)nc1`, “log2 fold change” read -0.13 (CMK1 (Candida albicans); kinase binding, MIB/MS competition; Candida albicans lysate; 1 µM; relative to: DMSO).

Excerpt of the above:
The ΔTm of `O=C(N/N=C/c1cc[n+](Cc2ccccc2)c2ccccc12)c1cccc(C(=O)N/N=C/c2cc[n+](Cc3ccccc3)c3ccccc23)n1` is reported as 16.4 ± 0.4 °C (22CTA telomeric G4-DNA antiparallel; FRET melting; 1 µM, K10 buffer, DNA 0.2 µM, with: ds26 10 µM).
The di-ubiquitin formed of `O=c1c(-c2cnn(-c3ccc(Cl)cc3)c2)c(C(F)(F)F)oc2c(O)c(O)ccc12` is reported as 65% (ROC1-CUL1 E3 subcomplex; di-ubiquitin synthesis; 37.5 µM; relative to: input).
With `O=C(Nc1ccc([C@H]2[C@@H](F)[C@@H](F)C[C@@H](F)[C@H]2F)cc1)C1(N2CCOCC2)CC1` the hepatic clearance was 48 mL/min/kg (liver microsome stability; rat liver microsomes; 1 µM).
